# Results collected from several papers.
# ± marks the error that the study gave.
# CYP2E1: Cytochrome P450 2E1 (CYP2E1, Homo sapiens, UniProt P05181)
# Chain of UniProt P05181 (whole entry, looked up): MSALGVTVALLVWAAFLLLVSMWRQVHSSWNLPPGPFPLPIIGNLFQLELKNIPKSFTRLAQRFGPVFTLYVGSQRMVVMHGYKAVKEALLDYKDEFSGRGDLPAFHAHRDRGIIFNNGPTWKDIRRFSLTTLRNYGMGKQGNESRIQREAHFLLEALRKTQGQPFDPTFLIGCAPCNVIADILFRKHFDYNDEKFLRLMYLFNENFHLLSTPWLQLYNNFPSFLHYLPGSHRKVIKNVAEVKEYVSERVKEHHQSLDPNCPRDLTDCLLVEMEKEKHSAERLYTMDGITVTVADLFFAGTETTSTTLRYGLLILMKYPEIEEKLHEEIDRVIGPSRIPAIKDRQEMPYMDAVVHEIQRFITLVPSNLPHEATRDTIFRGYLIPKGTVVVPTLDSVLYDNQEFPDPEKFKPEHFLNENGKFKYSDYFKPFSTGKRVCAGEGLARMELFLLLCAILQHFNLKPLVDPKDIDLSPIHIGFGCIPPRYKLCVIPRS
# SLC22A1: Solute carrier family 22 member 1 (SLC22A1, Homo sapiens, UniProt O15245)
# Chain of UniProt O15245 (whole entry, looked up): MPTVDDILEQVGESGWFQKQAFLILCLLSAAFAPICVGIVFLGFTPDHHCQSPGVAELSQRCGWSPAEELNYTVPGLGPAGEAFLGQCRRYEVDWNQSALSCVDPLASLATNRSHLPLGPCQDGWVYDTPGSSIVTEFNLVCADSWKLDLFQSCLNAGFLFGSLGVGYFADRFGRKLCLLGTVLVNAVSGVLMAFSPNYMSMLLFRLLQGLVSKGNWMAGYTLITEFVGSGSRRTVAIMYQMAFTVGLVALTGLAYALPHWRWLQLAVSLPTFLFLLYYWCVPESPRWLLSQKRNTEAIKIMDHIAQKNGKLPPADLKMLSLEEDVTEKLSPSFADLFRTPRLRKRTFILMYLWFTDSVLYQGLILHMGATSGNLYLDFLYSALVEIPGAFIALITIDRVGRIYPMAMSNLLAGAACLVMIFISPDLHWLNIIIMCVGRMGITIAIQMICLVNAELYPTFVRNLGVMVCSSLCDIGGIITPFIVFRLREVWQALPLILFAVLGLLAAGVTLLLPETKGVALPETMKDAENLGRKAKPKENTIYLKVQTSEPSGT
# CYP2B6: Cytochrome P450 2B6 (CYP2B6, Homo sapiens, UniProt P20813)
# Chain of UniProt P20813 (whole entry, looked up): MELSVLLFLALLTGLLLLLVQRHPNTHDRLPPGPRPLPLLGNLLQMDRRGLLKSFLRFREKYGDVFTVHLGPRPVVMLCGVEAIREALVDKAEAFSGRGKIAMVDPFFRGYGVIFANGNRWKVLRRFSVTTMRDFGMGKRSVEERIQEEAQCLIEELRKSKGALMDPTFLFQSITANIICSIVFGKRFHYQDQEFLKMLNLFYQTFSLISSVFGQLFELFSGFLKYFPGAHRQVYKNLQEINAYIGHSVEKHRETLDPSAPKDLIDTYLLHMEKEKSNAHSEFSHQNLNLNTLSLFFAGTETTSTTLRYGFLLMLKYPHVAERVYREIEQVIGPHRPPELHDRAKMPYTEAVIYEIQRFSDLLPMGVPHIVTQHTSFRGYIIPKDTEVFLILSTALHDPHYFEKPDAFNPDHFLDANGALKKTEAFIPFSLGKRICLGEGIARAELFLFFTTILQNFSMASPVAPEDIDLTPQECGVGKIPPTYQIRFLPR
# AHR: Aryl hydrocarbon receptor (AHR, Homo sapiens, UniProt P35869)
# Chain of UniProt P35869 (whole entry, looked up): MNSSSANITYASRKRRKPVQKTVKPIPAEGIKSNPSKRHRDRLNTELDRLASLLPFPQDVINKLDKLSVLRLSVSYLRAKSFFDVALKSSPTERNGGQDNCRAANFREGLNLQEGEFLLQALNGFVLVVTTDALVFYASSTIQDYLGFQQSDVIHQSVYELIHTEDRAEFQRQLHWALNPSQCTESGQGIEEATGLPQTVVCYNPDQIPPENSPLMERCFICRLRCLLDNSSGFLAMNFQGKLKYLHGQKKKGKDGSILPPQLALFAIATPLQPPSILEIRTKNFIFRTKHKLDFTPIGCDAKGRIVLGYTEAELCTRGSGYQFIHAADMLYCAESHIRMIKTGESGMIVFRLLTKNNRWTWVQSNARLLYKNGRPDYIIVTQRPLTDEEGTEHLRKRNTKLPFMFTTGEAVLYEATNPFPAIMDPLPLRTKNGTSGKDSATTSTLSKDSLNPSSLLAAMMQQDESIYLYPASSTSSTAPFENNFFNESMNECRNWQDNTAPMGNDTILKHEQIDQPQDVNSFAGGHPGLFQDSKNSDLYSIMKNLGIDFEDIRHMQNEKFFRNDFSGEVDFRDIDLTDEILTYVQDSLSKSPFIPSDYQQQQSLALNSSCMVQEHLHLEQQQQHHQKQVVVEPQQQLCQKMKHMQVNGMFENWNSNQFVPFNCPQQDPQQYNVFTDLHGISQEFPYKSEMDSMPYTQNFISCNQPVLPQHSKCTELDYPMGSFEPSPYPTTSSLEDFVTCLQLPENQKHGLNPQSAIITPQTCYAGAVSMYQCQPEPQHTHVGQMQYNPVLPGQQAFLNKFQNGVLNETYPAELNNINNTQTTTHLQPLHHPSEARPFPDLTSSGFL
# Chain of UniProt Q9Y6L6 (whole entry, looked up): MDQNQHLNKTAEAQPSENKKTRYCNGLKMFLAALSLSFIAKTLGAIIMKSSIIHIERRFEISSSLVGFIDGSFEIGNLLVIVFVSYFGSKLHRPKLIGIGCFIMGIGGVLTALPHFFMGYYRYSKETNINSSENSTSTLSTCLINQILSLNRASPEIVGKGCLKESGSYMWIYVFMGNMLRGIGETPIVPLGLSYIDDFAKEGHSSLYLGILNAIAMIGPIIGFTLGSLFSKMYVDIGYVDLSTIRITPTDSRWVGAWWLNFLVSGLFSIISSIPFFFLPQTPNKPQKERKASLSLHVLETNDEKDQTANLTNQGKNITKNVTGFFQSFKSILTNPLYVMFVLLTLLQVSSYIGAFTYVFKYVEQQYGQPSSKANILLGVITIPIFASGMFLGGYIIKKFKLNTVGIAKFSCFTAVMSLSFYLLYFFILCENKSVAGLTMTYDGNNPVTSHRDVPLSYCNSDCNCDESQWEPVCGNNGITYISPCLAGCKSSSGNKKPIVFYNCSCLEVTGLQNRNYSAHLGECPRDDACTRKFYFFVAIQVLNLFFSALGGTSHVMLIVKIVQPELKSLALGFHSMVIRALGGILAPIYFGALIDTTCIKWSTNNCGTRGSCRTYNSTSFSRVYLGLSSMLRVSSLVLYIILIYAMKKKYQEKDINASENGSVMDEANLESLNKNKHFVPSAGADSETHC
# Chain of UniProt O94956 (whole entry, looked up): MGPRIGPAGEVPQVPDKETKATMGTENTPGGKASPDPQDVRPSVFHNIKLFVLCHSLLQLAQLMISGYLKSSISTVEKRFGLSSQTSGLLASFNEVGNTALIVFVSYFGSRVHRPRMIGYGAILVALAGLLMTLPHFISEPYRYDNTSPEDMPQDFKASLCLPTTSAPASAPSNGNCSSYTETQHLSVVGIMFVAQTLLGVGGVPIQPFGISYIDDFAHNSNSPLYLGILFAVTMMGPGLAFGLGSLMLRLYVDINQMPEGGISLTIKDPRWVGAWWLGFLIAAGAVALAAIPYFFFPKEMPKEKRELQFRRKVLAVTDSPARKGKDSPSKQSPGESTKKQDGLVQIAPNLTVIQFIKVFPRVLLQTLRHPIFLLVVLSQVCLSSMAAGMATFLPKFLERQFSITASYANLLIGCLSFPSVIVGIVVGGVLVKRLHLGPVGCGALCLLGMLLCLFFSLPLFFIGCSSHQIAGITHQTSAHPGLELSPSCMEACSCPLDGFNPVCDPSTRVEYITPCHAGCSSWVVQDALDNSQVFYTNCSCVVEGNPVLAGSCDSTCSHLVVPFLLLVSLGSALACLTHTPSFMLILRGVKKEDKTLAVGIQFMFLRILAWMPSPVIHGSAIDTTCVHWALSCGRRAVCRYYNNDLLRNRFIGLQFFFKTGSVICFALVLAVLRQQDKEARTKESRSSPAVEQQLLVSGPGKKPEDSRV
# Chain of UniProt P08183 (whole entry, looked up): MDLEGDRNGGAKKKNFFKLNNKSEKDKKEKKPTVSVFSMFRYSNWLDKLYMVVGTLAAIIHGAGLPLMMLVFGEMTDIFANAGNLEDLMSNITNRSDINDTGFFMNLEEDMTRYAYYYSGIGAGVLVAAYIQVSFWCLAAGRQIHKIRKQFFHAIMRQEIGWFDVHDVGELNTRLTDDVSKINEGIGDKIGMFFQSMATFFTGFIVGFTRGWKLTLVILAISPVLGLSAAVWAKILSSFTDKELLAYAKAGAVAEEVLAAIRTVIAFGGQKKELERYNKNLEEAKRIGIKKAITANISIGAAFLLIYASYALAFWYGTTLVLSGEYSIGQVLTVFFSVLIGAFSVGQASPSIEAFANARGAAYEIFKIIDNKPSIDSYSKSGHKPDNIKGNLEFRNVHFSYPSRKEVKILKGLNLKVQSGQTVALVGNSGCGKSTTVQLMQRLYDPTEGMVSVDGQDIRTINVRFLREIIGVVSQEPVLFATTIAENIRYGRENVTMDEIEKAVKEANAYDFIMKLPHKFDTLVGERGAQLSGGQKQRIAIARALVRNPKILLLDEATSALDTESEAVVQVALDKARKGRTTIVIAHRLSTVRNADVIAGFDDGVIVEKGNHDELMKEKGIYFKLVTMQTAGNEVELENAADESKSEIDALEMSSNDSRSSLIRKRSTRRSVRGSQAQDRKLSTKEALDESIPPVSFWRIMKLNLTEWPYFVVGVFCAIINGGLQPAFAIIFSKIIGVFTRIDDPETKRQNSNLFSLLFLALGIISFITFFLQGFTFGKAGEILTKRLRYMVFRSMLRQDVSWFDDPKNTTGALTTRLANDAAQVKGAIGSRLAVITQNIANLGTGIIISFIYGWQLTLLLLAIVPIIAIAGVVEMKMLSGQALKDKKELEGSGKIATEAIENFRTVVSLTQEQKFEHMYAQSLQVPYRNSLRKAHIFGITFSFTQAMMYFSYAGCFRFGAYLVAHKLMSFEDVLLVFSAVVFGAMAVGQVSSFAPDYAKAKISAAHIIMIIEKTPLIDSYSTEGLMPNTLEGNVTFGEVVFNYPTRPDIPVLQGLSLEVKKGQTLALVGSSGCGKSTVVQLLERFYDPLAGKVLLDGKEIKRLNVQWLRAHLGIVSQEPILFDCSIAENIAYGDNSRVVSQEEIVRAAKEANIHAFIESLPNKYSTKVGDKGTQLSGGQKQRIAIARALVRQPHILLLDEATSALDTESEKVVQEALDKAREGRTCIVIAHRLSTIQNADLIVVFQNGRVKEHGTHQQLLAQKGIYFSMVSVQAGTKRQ
SMILES,target,assay,system,conditions,scale,measurement,value
Nc1ccccc1,CYP2E1,"enzyme activity, inhibitor",,"concentration not given, 30 min, pH 7.4",,remaining activity,5.5%
Cc1oncc1C(=O)Nc1ccc(C(F)(F)F)cc1,SLC22A1,"transport, inhibitor",transiently transfected cells,"100 µM, 10 (unit not given), added: metformin",,inhibition,21.8%
CC[C@H](C)[C@H](NC(=O)[C@H](CCCCN)NC(=O)[C@@H](NC(=O)[C@H](Cc1ccc(O)cc1)NC(=O)[C@H](CCCCN)NC(=O)[C@H](CCCCN)NC(=O)CNC(=O)[C@H](CCCCN)NC(=O)[C@@H](NC(=O)[C@H](C)NC(=O)[C@H](CC(C)C)NC(=O)[C@H](Cc1c[nH]c2ccccc12)NC(=O)CNC(=O)[C@@H](NC(=O)[C@H](Cc1ccccc1)NC(=O)[C@H](CCCCN)NC(=O)[C@H](CC(C)C)NC(=O)[C@H](Cc1ccccc1)NC(=O)[C@H](C)NC(=O)CNC(=O)[C@@H](N)CCSC)C(C)C)[C@@H](C)O)C(C)C)C(=O)N[C@@H](C)C(=O)N[C@@H](Cc1c[nH]c2ccccc12)C(=O)N[C@@H](CC(=O)O)C(=O)N[C@@H](Cc1c[nH]cn1)C(=O)N[C@@H](CCCCN)C(=O)NCC(=O)N[C@H](C(=O)N[C@H](C(=O)N[C@@H](CCSC)C(=O)N[C@@H](CCCCN)C(=O)N[C@@H](Cc1c[nH]c2ccccc12)C(=O)N[C@@H](CC(C)C)C(=O)N[C@@H](CC(N)=O)C(=O)N[C@@H](C)C(=O)NCC(=O)N[C@@H](CCC(N)=O)C(=O)N[C@H](C(=O)N[C@@H](Cc1ccccc1)C(=O)N[C@H](C(=O)N[C@@H](Cc1c[nH]c2ccccc12)C(=O)N[C@H](C(=O)N[C@@H](Cc1ccc(O)cc1)C(=O)N[C@@H](CCC(=O)O)C(=O)N[C@@H](CCC(N)=O)C(=O)N[C@H](C(=O)N[C@@H](CCCCN)C(=O)N[C@@H](CCCCN)C(=O)N[C@@H](CC(C)C)C(=O)N[C@@H](Cc1c[nH]c2ccccc12)C(=O)N[C@H](C(=O)O)[C@@H](C)O)[C@@H](C)CC)C(C)C)[C@@H](C)O)[C@@H](C)O)[C@@H](C)CC)[C@@H](C)O,"Papain (Carica papaya, UniProt P00784)",,"Pediococcus damnosus, CECT 4797","3 h, 37 °C, added: papain 1 mg/mL",,MIC after protease treatment,781 µg/mL
CC(C)CC(=O)OC[C@H]1O[C@@](C#N)(c2ccc3c(N)ncnn23)[C@H](O)[C@@H]1O,"ABCB1 (Homo sapiens, UniProt P08183)",,Caco-2,"9 µM, added: verapamil 100 µM",,Papp B to A,3.05 ×10⁻⁶ cm/s
S=C=NCCc1ccccc1,CYP2E1,"enzyme activity, inhibitor",,"concentration not given, 30 min, pH 7.4",,remaining activity,1.2%
O=C(O)C(F)(F)C(F)(F)C(F)(F)C(F)(F)C(F)(F)C(F)(F)C(F)(F)F,"SLCO2B1 (Homo sapiens, UniProt O94956)","uptake, substrate","CHO cells stably expressing SLCO2B1, HBSS with HEPES",pH 7.4,,CLint,10.1 ± 6 µL/min/mg
N#Cc1ccc([C@H]2CCc3cncn32)c(F)c1,CYP2B6,inhibitor,,,,Ki,10 µM
O=C1c2ccccc2C(=O)c2c1ccc1ccccc21,AHR,"reporter gene, agonist",Huh-7 reporter cells,22 to 24 h,,EC50,2670 nM
CCOC(=O)c1c(CSc2ccccc2)n(C)c2cc(Br)c(O)c(CN(C)C)c12,SLC22A1,"transport, inhibitor",transiently transfected cells,"100 µM, 10 (unit not given), added: metformin",,inhibition,110%
CC[C@H](C)[C@H](NC(=O)[C@H](CCCCN)NC(=O)[C@H](CCC(=O)O)NC(=O)[C@H](CCCCN)NC(=O)[C@H](CO)NC(=O)[C@H](CCCCN)NC(=O)[C@H](CCCNC(=N)N)NC(=O)[C@H](Cc1ccccc1)NC(=O)[C@H](Cc1ccccc1)NC(=O)[C@H](CC(=O)O)NC(=O)CNC(=O)[C@H](CC(C)C)NC(=O)[C@@H](N)CC(C)C)C(=O)NCC(=O)N[C@@H](CCCCN)C(=O)N[C@@H](CCC(=O)O)C(=O)N[C@@H](Cc1ccccc1)C(=O)N[C@@H](CCCCN)C(=O)N[C@@H](CCCNC(=N)N)C(=O)N[C@H](C(=O)N[C@H](C(=O)N[C@@H](CCC(N)=O)C(=O)N[C@@H](CCCNC(=N)N)C(=O)N[C@H](C(=O)N[C@@H](CCCCN)C(=O)N[C@@H](CC(=O)O)C(=O)N[C@@H](Cc1ccccc1)C(=O)N[C@@H](CC(C)C)C(=O)N[C@@H](CCCNC(=N)N)C(=O)N[C@@H](CC(N)=O)C(=O)N[C@@H](CC(C)C)C(=O)N[C@H](C(=O)N1CCC[C@H]1C(=O)N[C@@H](CCCNC(=N)N)C(=O)N[C@H](C(=O)N[C@@H](CCC(=O)O)C(=O)N[C@@H](CO)C(=O)O)[C@@H](C)O)C(C)C)[C@@H](C)CC)C(C)C)[C@@H](C)CC,human neutrophil elastase,LC-MS,,"40 µM, 60 min, pH 7.5, 37 °C",reference: 0 h,remaining intact peptide,5.53%
CC(C)[C@H](C(=O)O[C@H](C#N)c1cccc(Oc2ccccc2)c1)c1ccc(Cl)cc1,human microsomal CES1,IVIVE from expressed enzymes,"human, 5 years old",,reference: total hepatic CLint in vivo,relative enzyme contribution,44.7%
Clc1ccc(-c2ccccc2Cl)cc1,AHR,"reporter gene, antagonist",AZ-AHR cells,"40 µM, added: TCDD 4.5 nM",reference: TCDD 4.5 nM,maximum activity,58%
COc1cccc(N(C)C(=S)Oc2ccc3c(c2)CCCC3)n1,CYP2B6,enzyme activity,,"20 min, 2% DMSO",,maximal inhibition,~65%
CC1(C)C(/C=C(\Cl)C(F)(F)F)C1C(=O)OC(C#N)c1cccc(Oc2ccccc2)c1 (stereo not shown),human microsomal CES1,IVIVE from expressed enzymes,"human, liver, in vivo scaled",age-specific,,enzyme contribution to CLint,58.5%
CCCC[C@H]1C(=O)N(C)[C@@H](CCCC)C(=O)N[C@@H](CCCCNC(=O)CN2CCN(CC(=O)O)CCN(CC(=O)O)CC2)C(=O)N[C@H](C(=O)NCC(N)=O)CSCC(=O)N[C@@H](Cc2ccc(O)cc2)C(=O)N(C)[C@@H](C)C(=O)N[C@@H](CC(N)=O)C(=O)N2CCC[C@H]2C(=O)N[C@@H](Cc2c[nH]cn2)C(=O)N[C@@H](CCC(=O)O)C(=O)N2C[C@H](O)C[C@H]2C(=O)N[C@@H](Cc2c[nH]c3ccccc23)C(=O)N[C@@H](CO)C(=O)N[C@@H](Cc2cn(CC(=O)O)c3ccccc23)C(=O)N1C [gallium-68 labelled],"CD274 (Homo sapiens, UniProt Q9NZQ7)",PET,"humanised NOG-EXL mice, U-87 MG xenograft","day D5 after antibody, added: anti-PD-L1 antibody 10 mg/kg",,tumour uptake,1.17 %ID/g
Clc1ccc(-c2cc(Cl)ccc2Cl)cc1,AHR,"reporter gene, antagonist",AZ-AHR cells,"40 µM, added: TCDD 4.5 nM",reference: TCDD 4.5 nM,maximum activity,45%
COc1ccc2cc1Oc1ccc(cc1)C[C@H]1c3cc(c(OC)cc3CCN1C)Oc1c(OC)c(OC)cc3c1[C@H](C2)N(C)CC3,"SLCO1B1 (Homo sapiens, UniProt Q9Y6L6)","transport, inhibitor",,"10 µM, added: ES",,inhibition,36.9%
CC1(C)C(C=C(Cl)Cl)C1C(=O)OC(C#N)c1ccc(F)c(Oc2ccccc2)c1 (stereo not shown),human microsomal CES1,IVIVE from expressed enzymes,"human, 6 months old, expressed human CES1",0.1 µM,reference: total hepatic CLint in vivo,relative enzyme contribution,61%
CCCCc1nc(Cl)c(CO)n1Cc1ccc(-c2ccccc2-c2nn[nH]n2)cc1,SLC22A1,"transport, inhibitor",transiently transfected cells,"100 µM, 10 (unit not given), added: metformin",,inhibition,0.0693%
CC1CO1 (stereo not shown),CYP2E1,"enzyme activity, inhibitor",,added: 4-nitrophenol 50 µM,,IC50,15 mM
CC1(C)[C@H](C(=O)OCc2cccc(Oc3ccccc3)c2)[C@@H]1C=C(Cl)Cl,human microsomal CES1,IVIVE from expressed enzymes,"human, liver, in vivo scaled","0.1 µM, age-specific",,enzyme contribution to CLint,47.8%
CCC(CC)COC(=O)[C@H](C)N[P@](=O)(OC[C@H]1O[C@@](C#N)(c2ccc3c(N)ncnn23)[C@H](O)[C@@H]1O)Oc1ccccc1,SLC22A1,"transport, inhibitor",transiently transfected cells,"100 µM, 10 (unit not given), added: metformin",,inhibition,78.9%

# For quick reference, copied from above:
SMILES,target,assay,system,conditions,scale,measurement,value
Cc1oncc1C(=O)Nc1ccc(C(F)(F)F)cc1,SLC22A1,"transport, inhibitor",transiently transfected cells,"100 µM, 10 (unit not given), added: metformin",,inhibition,21.8%
CC[C@H](C)[C@H](NC(=O)[C@H](CCCCN)NC(=O)[C@@H](NC(=O)[C@H](Cc1ccc(O)cc1)NC(=O)[C@H](CCCCN)NC(=O)[C@H](CCCCN)NC(=O)CNC(=O)[C@H](CCCCN)NC(=O)[C@@H](NC(=O)[C@H](C)NC(=O)[C@H](CC(C)C)NC(=O)[C@H](Cc1c[nH]c2ccccc12)NC(=O)CNC(=O)[C@@H](NC(=O)[C@H](Cc1ccccc1)NC(=O)[C@H](CCCCN)NC(=O)[C@H](CC(C)C)NC(=O)[C@H](Cc1ccccc1)NC(=O)[C@H](C)NC(=O)CNC(=O)[C@@H](N)CCSC)C(C)C)[C@@H](C)O)C(C)C)C(=O)N[C@@H](C)C(=O)N[C@@H](Cc1c[nH]c2ccccc12)C(=O)N[C@@H](CC(=O)O)C(=O)N[C@@H](Cc1c[nH]cn1)C(=O)N[C@@H](CCCCN)C(=O)NCC(=O)N[C@H](C(=O)N[C@H](C(=O)N[C@@H](CCSC)C(=O)N[C@@H](CCCCN)C(=O)N[C@@H](Cc1c[nH]c2ccccc12)C(=O)N[C@@H](CC(C)C)C(=O)N[C@@H](CC(N)=O)C(=O)N[C@@H](C)C(=O)NCC(=O)N[C@@H](CCC(N)=O)C(=O)N[C@H](C(=O)N[C@@H](Cc1ccccc1)C(=O)N[C@H](C(=O)N[C@@H](Cc1c[nH]c2ccccc12)C(=O)N[C@H](C(=O)N[C@@H](Cc1ccc(O)cc1)C(=O)N[C@@H](CCC(=O)O)C(=O)N[C@@H](CCC(N)=O)C(=O)N[C@H](C(=O)N[C@@H](CCCCN)C(=O)N[C@@H](CCCCN)C(=O)N[C@@H](CC(C)C)C(=O)N[C@@H](Cc1c[nH]c2ccccc12)C(=O)N[C@H](C(=O)O)[C@@H](C)O)[C@@H](C)CC)C(C)C)[C@@H](C)O)[C@@H](C)O)[C@@H](C)CC)[C@@H](C)O,"Papain (Carica papaya, UniProt P00784)",,"Pediococcus damnosus, CECT 4797","3 h, 37 °C, added: papain 1 mg/mL",,MIC after protease treatment,781 µg/mL
CC(C)CC(=O)OC[C@H]1O[C@@](C#N)(c2ccc3c(N)ncnn23)[C@H](O)[C@@H]1O,"ABCB1 (Homo sapiens, UniProt P08183)",,Caco-2,"9 µM, added: verapamil 100 µM",,Papp B to A,3.05 ×10⁻⁶ cm/s
